Published values from different studies.
Protocols differ between the studies behind these lines.

The MIC of `COC(=O)CNC(=O)c1ccc(NC(=O)c2[nH]c(C)c(Cl)c2Cl)c(N2CCN(C(=O)OC(C)(C)C)CC2)c1` is reported as over 32 µg/mL (Enterococcus faecium; microbial growth, broth dilution; ATCC35667).
For `C=CCO/N=C(\C(=O)N[C@@H]1C(=O)N(OS(=O)(=O)O)C1(C)C)c1csc(N)n1`, the MIC was 0.25 µg/mL (Enterobacter cloacae; agar dilution; ATCC 43560, susceptible).
`COc1cc(C(=O)Nc2ccc(C(=O)O)c(O)c2OC)ccc1NC(=O)c1ccc(NC(=O)[C@H](Cc2c[nH]nn2)NC(=O)c2ccc(NC(=O)/C(C)=C/c3ccc(O)cc3)cc2)cc1` has an MIC of 8 µg/mL (Enterococcus faecium; broth microdilution; ciprofloxacin-resistant).
The MIC of `CO[C@H]1/C=C/O[C@@]2(C)Oc3c(C)c(O)c4c(c3C2=O)C2=NC3(CCN(CC(C)C)CC3)NC2=C(NC(=O)/C(C)=C\C=C\[C@H](C)[C@H](O)[C@@H](C)[C@@H](O)[C@@H](C)[C@H](OC(=O)c2cccnc2)[C@@H]1C)C4=O` is reported as 0.023 µM (Mycobacteroides abscessus; Bamboo clinical isolate; 90% growth inhibition).
`CC1(C)C(NC(=O)C(=NOC2(C(=O)O)CC2)c2csc(N)n2)C(=O)N1OS(=O)(=O)O` (stereo not shown) has an MIC of 4 µg/mL (Klebsiella pneumoniae; agar dilution; ATCC 700603, ESBL-producing).
The MIC of `CCCCCO[C@H]1[C@H](O)[C@@H](N)[C@@H](O[C@H]2[C@H](O[C@@H]3O[C@H](CO)[C@@H](O[C@H]4O[C@@H](CN)[C@@H](O)[C@H](O)[C@H]4N)[C@H]3O)[C@@H](O)[C@H](N)C[C@@H]2N)O[C@@H]1CO` is reported as at least 256 µg/mL (Mycolicibacterium smegmatis; microbial growth, broth dilution; 72 h).
The MIC of `COc1c(NC(=O)c2ccc(NC(=O)c3ccc(NC(=O)[C@H](CC#N)NC(=O)c4ccc(NC(=O)/C(C)=C/c5ccc(O)cc5)cc4)cc3)c(OC)c2O)ccc(C(=O)O)c1O` is reported as 16 µg/mL (Enterococcus faecium; broth microdilution; ciprofloxacin-resistant).
For `CC[C@H](C)[C@@H]1NC(=O)[C@@H]([C@@H](C)O)NC(=O)CNC(=O)[C@H](CC(=O)O)NC(=O)CNC(=O)[C@H](CC(=O)O)NC(=O)CNC(=O)[C@H]2CCCCN2C(=O)[C@@H](NC(=O)[C@H](CC(=O)O)NC(=O)/C=C/CCCCCCCCCC(C)C)CNC(=O)[C@@H]2CCCN2C1=O`, the MIC was over 128 µg/mL (Enterococcus; broth microdilution; VRE 155, Mueller-Hinton broth, Mg2+ 10 mg/L; 16 h, together with: Ca2+ 0 mM).
The MIC of `COCOC[C@H]1O[C@H](O[C@H]2[C@H](O[C@@H]3O[C@H](CO)[C@@H](O[C@H]4O[C@@H](CN)[C@@H](O)[C@H](O)[C@H]4N)[C@H]3O)[C@@H](O)[C@H](N)C[C@@H]2N)[C@H](N)[C@@H](O)[C@@H]1OCOC` is reported as over 256 µg/mL (Mycolicibacterium smegmatis; microbial growth, broth dilution; 72 h).
For `Cc1c(CN(C)C(=O)/C=C/c2cnc3c(c2)CC(N)C(=O)N3)oc2ccccc12` (stereo not shown), the MIC was 4 µg/mL (Escherichia coli; microbial growth, broth dilution; MG1655; clinical isolate).
`CN[C@H](CC(C)C)C(=O)N[C@H]1C(=O)N[C@@H](CC(N)=O)C(=O)N[C@H]2C(=O)N[C@H]3C(=O)N[C@H](C(=O)N[C@H](C(=O)O)c4cc(O)cc(O)c4-c4cc3ccc4O)[C@H](O)c3ccc(c(Cl)c3)Oc3cc2cc(c3O[C@@H]2O[C@H](CO)[C@@H](O)[C@H](O)[C@H]2O[C@H]2C[C@](C)(N)[C@H](O)[C@H](C)O2)Oc2ccc(cc2Cl)[C@H]1O` gave an MIC of under 1 µM (Staphylococcus epidermidis; microbial growth, broth dilution; 12228).
The MIC of `COc1c(NC(=O)c2ccc(NC(=O)c3ccc(NC(=O)[C@H](Cc4c[nH]nn4)NC(=O)c4ccc(NC(=O)/C(C)=C/c5ccc(O)cc5)cc4)cc3)c(OC)c2O)ccc(C(=O)O)c1O` is reported as 0.25 µg/mL (Salmonella enterica; microbial growth, broth dilution).
With `CN[C@H](CC(C)C)C(=O)N[C@H]1C(=O)N[C@@H](CC(N)=O)C(=O)N[C@H]2C(=O)N[C@H]3C(=O)N[C@H](C(=O)N[C@H](C(=O)O)c4cc(O)cc(O)c4-c4cc3ccc4O)[C@H](O)c3ccc(c(Cl)c3)Oc3cc2cc(c3O[C@@H]2O[C@H](CO)[C@@H](O)[C@H](O)[C@H]2O[C@H]2C[C@](C)(NCc3ccc(-c4ccc(Cl)cc4)cc3)[C@H](O)[C@H](C)O2)Oc2ccc(cc2Cl)[C@H]1O` the MIC was 2.5 µg/mL (Enterococcus faecium; VanA VRE ATCC BAA-2317; no LTA, together with: Mg2+ 100 µg/mL).
For `CC(C)(O/N=C(\C(=O)N[C@@H]1C(=O)N(OS(=O)(=O)O)C1(C)C)c1nsc(N)n1)C(=O)O`, the MIC was over 64 µg/mL (Enterobacter cloacae; agar dilution; CDC 1000654).
With `COc1c(NC(=O)c2ccc(NC(=O)c3ccc(NC(=O)[C@H](Cc4c[nH]nn4)NC(=O)c4ccc(NC(=O)/C(C)=C/c5ccc(O)cc5)cc4)cc3)cc2)ccc(C(=O)O)c1O` the MIC was 16 µg/mL (Enterococcus faecium; broth microdilution; ciprofloxacin-sensitive).
With `CC1(C)C(NC(=O)C(=NOCC(=O)N2CC3CCCC3C2C(=O)O)c2csc(N)n2)C(=O)N1OS(=O)(=O)O` (stereo not shown) the MIC was 2 µg/mL (Enterobacter cloacae; agar dilution; ATCC 43560, susceptible).
`C=C(NC(=O)c1csc(-c2nc3c(cc2O)-c2nc(cs2)C(=O)NC(C(C)O)C(=O)NC(=C(C)OC)c2nc(cs2)C(=O)NC2c4nc(cs4)C(=O)NC(COC(=O)c4c5c6c(cccc6n4O)COC(=O)C(OC4CC(C)(O)C(N(C)C)C(C)O4)C2OC5)c2nc-3cs2)n1)C(N)=O` (stereo not shown) has an MIC of 0.078 µg/mL (Enterococcus faecium; -30, vancomycin-intermediate).
With `C=CCO/N=C(\C(=O)N[C@@H]1C(=O)N(OS(=O)(=O)O)C1(C)C)c1nsc(N)n1` the MIC was 0.25 µg/mL (Enterobacter cloacae; agar dilution; ATCC 43560, susceptible).
`COC1C=COC2(C)Oc3c(C)c(O)c4c(c3C2=O)C2=NC3(CCN(CC(C)C)CC3)NC2=C(NC(=O)C(C)=CC=CC(C)C(O)C(C)C(O)C(C)C(OC(=O)c2cncnc2)C1C)C4=O` (stereo not shown) has an MIC of 43.7 µg/mL (Mycobacteroides abscessus; ATCC 19977; single-strain MIC).
With `CC1OCC2OC(OC3C(N)CC(N)C(O)C3OC3OC(CO)C(OC4OC(CN)C(O)C(O)C4N)C3O)C(N)C(O)C2O1` (stereo not shown) the MIC was 32 µg/mL (Mycolicibacterium smegmatis; microbial growth, broth dilution; 72 h).
The MIC of `COc1cc(C(=O)O)ccc1NC(=O)c1ccc(NC(=O)c2ccc(NC(=O)[C@H](Cc3c[nH]nn3)NC(=O)c3ccc(NC(=O)/C(C)=C/c4ccc(O)cc4)cc3)cc2)c(OC)c1O` is reported as 16 µg/mL (Enterococcus faecium; broth microdilution; ciprofloxacin-resistant).
`CC1(C)[C@H](NC(=O)/C(=N\OCc2c(Cl)cccc2Cl)c2csc(N)n2)C(=O)N1OS(=O)(=O)O` gave an MIC of 1 µg/mL (Enterobacter cloacae; agar dilution; ATCC 43560, susceptible).
`COc1nc(C(=O)Nc2ccc(C(=O)O)c(O)c2OC)ccc1NC(=O)c1ccc(NC(=O)[C@H](Cc2c[nH]nn2)NC(=O)c2ccc(NC(=O)/C(C)=C/c3ccc(O)cc3)cc2)cc1` gave an MIC of 0.25 µg/mL (Enterococcus faecium; broth microdilution; ciprofloxacin-sensitive).
For `CC1(C)[C@H](NC(=O)/C(=N\OCC(=O)N2CCC(C(=O)O)CC2)c2csc(N)n2)C(=O)N1OS(=O)(=O)O`, the MIC was over 64 µg/mL (Enterobacter cloacae; agar dilution; CDC 1000654).
For `O=CCNCCOn1c(=O)n(OCCNCCO)c(=O)n(OCCNCCOn2c(=O)n(OCCNCCO)c(=O)n(OCCNCCO)c2=O)c1=O`, the MIC was 1 µg/mL (Staphylococcus epidermidis; microbial growth, broth dilution).
